Experimental data of several laboratories.
Every numbered part comes from another study and shows a few of its results, in no order. Values joined by “and” are separate records of one study, mostly repeats; a detail may differ.

Study 1
SMILES: CC(C)n1cnc(-c2ccc(F)cc2)c1-c1ncc(C(=O)Nc2ccc(N3CCN(C)CC3)cc2)[nH]1
test	test system	setting	patients with adverse event [%]
Phase 2a trial, item: hepatic steatosis	human, idiopathic pulmonary fibrosis	30 mg once daily, grade 4	0
Phase 2a trial, item: hepatic steatosis	human, idiopathic pulmonary fibrosis	30 mg once daily, grade 2	0
Phase 2a trial, item: blood creatinine increased	human, idiopathic pulmonary fibrosis	60 mg once daily, grade 5	0
item: periorbital oedema, grade 4	idiopathic pulmonary fibrosis patients	oral, 60 mg once daily	0
Phase 2a trial, item: haemorrhoids	human, idiopathic pulmonary fibrosis	30 mg once daily, grade 3	0
Phase 2a trial, item: blood glucose increased	human, idiopathic pulmonary fibrosis	all compound arms total, grade 4	0
Phase 2a trial, item: eosinophilia myalgia syndrome	human, idiopathic pulmonary fibrosis	all compound arms, grade 2	0
Phase 2a trial, item: blood fibrinogen increased	human, idiopathic pulmonary fibrosis	60 mg once daily, grade 5	0
Phase 2a trial, item: hepatobiliary disorders	human, idiopathic pulmonary fibrosis	60 mg once daily, grade 5	0

Study 2
Organism: Sarcocystis neurona
Effect on: parasite growth
Strain: GFP/luciferase reporter
Concentration: 10 µM
Notes: hit confirmation screen
SMILES	inhibition [%]
COc1cc2nc(N3CCN(C(=O)c4ccco4)CC3)nc(N)c2cc1OC	97.7
O=c1c(-c2ccccc2)c1-c1ccccc1	99.2
CC(C)/N=c1\cc2n(-c3ccc(Cl)cc3)c3ccccc3nc-2cc1Nc1ccc(Cl)cc1	98.9
CN1CCN(CC/C=C2/c3ccccc3Sc3ccc(S(=O)(=O)N(C)C)cc32)CC1	94
[H]/N=C(/NCCCCC)N/N=C/c1c[nH]c2ccc(OC)cc12	99.9
O=c1[nH]cc(F)c(=O)[nH]1	99
CCc1nc(N)nc(N)c1-c1ccc(Cl)cc1	98.3
CC(=O)[C@]1(O)Cc2c(O)c3c(c(O)c2[C@@H](O[C@H]2C[C@H](N)[C@H](O)[C@H](C)O2)C1)C(=O)c1ccccc1C3=O	99.8
OCCN1CCN(CCCN2c3ccccc3Sc3ccc(C(F)(F)F)cc32)CC1	3.8
CCCCCCNC(=O)n1cc(F)c(=O)[nH]c1=O	98.2
C[C@H]1[C@H](OC(=O)CCC(=O)O)O[C@@H]2O[C@@]3(C)CC[C@H]4[C@H](C)CC[C@@H]1[C@@]24OO3	92.1

Study 3
Cell line: mouse MPNST tumor cells
Technique: high-content immunofluorescence imaging
Item: nuclear SOX9
Concentration: 10 µM
Time: 12 h
Notes: mean of 2 replicates
Baseline: DMSO control
Direction: higher = more nuclear SOX9
Compound	nuclear SOX9 intensity
CN(C)CCN1C(=O)c2ccccc2N(C)c2ccccc21	88.9 % of DMSO
Cc1cc(N2CCOCC2)cc2[nH]c(-c3c(NCC(O)c4cccc(Cl)c4)cc[nH]c3=O)nc12 (centres unmarked)	96 % of DMSO
Nc1cccc2c1CN(C1CCC(=O)NC1=O)C2=O (centres unmarked)	121 % of DMSO
CC(C)CN(C[C@@H](O)[C@H](Cc1ccccc1)NC(=O)O[C@H]1CCOC1)S(=O)(=O)c1ccc(N)cc1	103 % of DMSO and 91.2 % of DMSO
Cc1c(C(N)=O)nn(-c2ccc(Cl)cc2Cl)c1-c1ccc(Cl)cc1	108 % of DMSO
CC(C)S(=O)(=O)c1ccc2nccc(Nc3ccc4scnc4c3)c2c1	131 % of DMSO
O=C(CCCCCCC(=O)Nc1cccnc1)NO	122 % of DMSO
O=C(O)CCN(O)C(=O)CCCCCCCCC1CC1	94.2 % of DMSO

Mixed results
Structure (SMILES)	cell line	test	setting	endpoint	result
Cn1cncc1[C@@](O)(COc1ccc(C#N)cc1-c1ccc(OC(F)(F)F)cc1)c1ccc(C#N)cc1	HEK293T	high-content imaging	10 µM, 12 h	total cell count	778 and 714

Excerpt of the above (study 3):
Compound	nuclear SOX9 intensity
Cc1cc(N2CCOCC2)cc2[nH]c(-c3c(NCC(O)c4cccc(Cl)c4)cc[nH]c3=O)nc12 (centres unmarked)	96 % of DMSO
CC(C)CN(C[C@@H](O)[C@H](Cc1ccccc1)NC(=O)O[C@H]1CCOC1)S(=O)(=O)c1ccc(N)cc1	103 % of DMSO and 91.2 % of DMSO
